Published values of several laboratories.
Compare with care: the assays were run in different laboratories. ± gives the spread as reported.

| SMILES | test | test system | setting | scale | endpoint | value |
| --- | --- | --- | --- | --- | --- | --- |
| NCCC(=O)N1Cc2ccccc2-c2c(nnn2-c2cn(C3OC(CO)C(O)C3O)c(=O)[nH]c2=O)-c2ccccc21 (mixture of isomers) | frequency-domain fluorometry | methanol |  |  | fluorescence lifetime τ2 | 2.3 ns |
| Cc1ccc(-c2ccc(-c3cc4sccc4o3)cn2)nc1 |  | aqueous HEPES buffer | pH 7.4, zinc-free ligand |  | fluorescence lifetime | 2.31 ns |
| NCCC(=O)N1Cc2ccccc2-c2c(nnn2-c2nc(N)c3ncn(C4OC(CO)C(O)C4O)c3n2)-c2ccccc21 (mixture of isomers) | frequency-domain fluorometry | methanol |  |  | fluorescence lifetime τ3 | 4.1 ns |
| CC1=CC(C)=[N+]2C1=C(CCCC(=O)NCCCCCC(=O)NCCCCCC(=O)NCCCC[C@H](NC(=O)N[C@@H](CCC(=O)O)C(=O)O)C(=O)O)c1c(C)cc(C)n1[B-]2(F)F |  | acetonitrile/water |  |  | fluorescence lifetime | 6.2 ± 0.1 ns |
| COc1cc(OC)cc(C2=C3C(C)=C(I)C(C)=[N+]3[B-](F)(F)n3c(/C=C/c4c[nH]c5ccccc45)c(I)c(C)c32)c1 |  | THF |  | relative to: methylene blue | fluorescence quantum yield | 0.2 |
| Nc1ncnc2c1nc(-n1nnc3c1CCC1C(CO)C1CC3)n2C1OC(CO)C(O)C1O (mixture of isomers) | frequency-domain fluorometry | methanol |  |  | fluorescence lifetime τ1 | 0.1 ns |
| CC1=CC(C)=[N+]2C1=C(CCCC(=O)O)c1c(C)cc(C)n1[B-]2(F)F |  | acetonitrile/water |  |  | fluorescence lifetime | 6.3 ± 0.1 ns |
| COc1cc(OC)cc(C2=C3C(C)=C(I)C(C)=[N+]3[B-](F)(F)n3c(/C=C/c4c[nH]c5ccc([N+](=O)[O-])cc45)c(I)c(C)c32)c1 |  | dichloromethane |  | relative to: methylene blue | fluorescence quantum yield | 0.37 |
| CCN(CC)C(=O)c1ccc(-c2c3ccc(=[N+](C)C)cc-3sc3cc4c(cc23)C(C)(C)CCN4C)s1 |  | methanol | added: excitation 532 nm |  | fluorescence emission maximum | 626 nm |
| COc1cc(OC)cc(C2=C3C(C)=C(I)C(C)=[N+]3[B-](F)(F)n3c(/C=C/c4cccs4)c(I)c(C)c32)c1 |  | DMSO |  | relative to: methylene blue | fluorescence quantum yield | 0.15 |
| CCN(CC)C(=S)c1ccc(-c2c3ccc(=[N+](C)C)cc-3sc3cc4c(cc23)C(C)(C)CCN4C)s1 |  | methanol | added: excitation 532 nm |  | fluorescence emission maximum | 626 nm |
| Nc1ncnc2c1nc(-n1nnc3c1CCC1C(CO)C1CC3)n2C1CC(O)C(CO)O1 (mixture of isomers) | frequency-domain fluorometry | methanol |  |  | fluorescence lifetime τ2 | 0.9 ns |
| CCOC(=O)c1[nH]c(C)c(/C=C/c2c(I)c(C)c3n2[B-](F)(F)[N+]2=C(C)C(I)=C(C)C2=C3c2cc(OC)cc(OC)c2)c1C |  | THF |  | relative to: methylene blue | fluorescence quantum yield | 0.22 |

Excerpt of the above:
| SMILES | test | test system | setting | scale | endpoint | value |
| --- | --- | --- | --- | --- | --- | --- |
| NCCC(=O)N1Cc2ccccc2-c2c(nnn2-c2cn(C3OC(CO)C(O)C3O)c(=O)[nH]c2=O)-c2ccccc21 (mixture of isomers) | frequency-domain fluorometry | methanol |  |  | fluorescence lifetime τ2 | 2.3 ns |
